# Experimental data of several laboratories.
# Parts stem from different laboratories: compare values within a part only. Changes are numbered by the printed parent chain.

# Block 1
# Target: Histone acetyltransferase KAT6A, winged helix 1, GST fusion (KAT6A, Homo sapiens, UniProt Q92794, residues 1-85)
# Technique: protein binding microarray
# Molecule type: double-stranded DNA, one strand shown
# Matrix: in vitro
# Tested at: not given
# Notes: 8-mer, flanks averaged, mean of 2 arrays, mostly near background
# Baseline: not given
# Reading: higher = stronger binding
# Residues (chain): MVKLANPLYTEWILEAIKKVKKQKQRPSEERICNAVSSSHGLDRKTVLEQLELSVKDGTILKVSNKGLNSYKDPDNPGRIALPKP
Oligonucleotide,E-score
GCGCATCC,0.385
ATCTGGCC,0.00369
ACGAGATG,-0.119
CCAGGGCC,-0.0227
GTGTGGCA,-0.173
CTTTTCTA,-0.191
TGTAAACA,-0.209
AGTCGACA,-0.314
CAAAGTGC,-0.0412
ACCTTGAC,-0.0424
AGATTCAC,-0.176
TCGATCGA,-0.0162
ACGTAAGC,-0.0357
GAGCGTGC,0.102
AGCAAACC,-0.17
ATAAGGAA,-0.175
CCAGTTGC,-0.159
CACATAGC,0.0897
GAGACTCC,-0.0188
GGACACCC,0.0351
AGTCCGGG,0.159
ACACAGAG,-0.125
GTGTATTA,-0.0841
ACATTGCC,-0.0453
AGCGAACA,0.0021

# Block 2
# Target: RING finger protein unkempt homolog, zinc fingers 1-6, GST-SBP tag (UNK, Homo sapiens, UniProt Q9C0B0, residues 30-357)
# Technique: RNA Bind-n-Seq
# Molecule type: RNA
# Matrix: in vitro
# Tested at: not given
# Notes: RNA with constant flanks, human-mouse chimeric sites, ends assumed
# Baseline: input RNA pool
# Reading: higher = stronger binding
# All sequences stand within: GGGAGUUCUACAGUCCGACGAUC … CAACAGAGGAUUGAGCAUCA
# Target sequence (chain): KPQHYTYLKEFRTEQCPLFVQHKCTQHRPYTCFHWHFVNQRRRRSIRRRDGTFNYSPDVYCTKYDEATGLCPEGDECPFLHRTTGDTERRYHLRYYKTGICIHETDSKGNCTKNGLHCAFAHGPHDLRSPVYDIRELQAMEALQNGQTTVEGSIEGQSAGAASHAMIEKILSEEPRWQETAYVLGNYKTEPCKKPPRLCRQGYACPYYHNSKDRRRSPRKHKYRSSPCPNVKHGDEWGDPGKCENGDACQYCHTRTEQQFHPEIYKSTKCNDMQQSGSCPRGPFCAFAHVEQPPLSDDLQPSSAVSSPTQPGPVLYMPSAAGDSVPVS
Oligonucleotide,bound/input enrichment [ratio]
ACUCAGAGAUCCACCUCCCAAAGUGCUGGGAGUAAAGGUGUGGCCACCACACCUAACUUGAUGGAUAUAUAUUUUUUUUAAUAUGAAUCUUCCUGUUCUUCAUCCAGGCAAGAACGGGUU,0.323
GCGAACAGGACUACAGAAAUGCUGGUAAUUUCAGUCACUUGCUGAUGACUUCUGAUGUCCCAGCAAAUGUUGGCAUUCACUGCAAUAGAGAAGAUACUUCUGAGGACCCACGUCUAAGGU,0.172
ACUCAGAGAUCCACCUCCCAAAGUGCUGGGAGUAAAGGUGUGGCCACCACACCUAACUUGAUGGAUAUAUAUUUUUUUUAAUAUGAAUGAACUCUUGCGUCCAGGGAAGAAAGAUUUGUU,0.799
GCUCUUGGCAAUGUAAUCAGCGCCUUGGGGGACAAGAGCAAGAGGGCCACCCAUGUCCCUUACAGAGACUCUAAGCUGACAAGACUCUUGCAGGAUUCCCUUGGGGGUAACAGCCAAACC,0.0908
AUCCCAAUUAUGGACACCGGUGAAAACCCAGAGGUUCCCUUCCCUCGGGACAUGAUUGACUUAGAGGCCAAUUUUGAGAAGAUUGAAAAUGAACUGAAGGAAAUCAACACAAACCAGGAA,0.183
AGGAGGAGGUUAAAGGGUGAGAGUGGGGUGGAAGACUGUGUCAUGGCUCUGGAGACACUGUUCAGUGUCCUGCUUUCUCUUUGCAGACUGAUGGCCCCCUACACACCCUUUCUGACUGAG,0.0784
AGAAUCUUGGGACUGUUUUACUUAAUUGGUCAUUGAUAGCUUAACAAACAUGGAGAUAAGAUUAGAAGUUUUGACAUCAACAAGUAUUAAGCAGAAAAAACCAUGGCCACGUGUCUCCUG,0.351

# Block 3
# Target: ABI1, truncated, D143A, DHFR fusion (Arabidopsis thaliana, UniProt P49597)
# Technique: DHFR PCA, dose-response
# Matrix: yeast
# Notes: Hill fit, mean, not affinity
# Together with: (+)-ABA, dose series
# Reading: lower = more sensitive
# Parent: PYL1, truncated, DHFR fusion (Arabidopsis thaliana, UniProt Q8VZS8); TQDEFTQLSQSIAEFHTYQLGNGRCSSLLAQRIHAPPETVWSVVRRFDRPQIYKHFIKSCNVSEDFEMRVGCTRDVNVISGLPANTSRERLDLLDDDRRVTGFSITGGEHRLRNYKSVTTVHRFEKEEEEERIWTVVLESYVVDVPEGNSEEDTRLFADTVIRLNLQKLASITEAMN
Variant,ABA EC50 [µM]
D48Y,275
F66M,4.69
H55D,7.16
R123Y,6.96
A35M,103
T173I,7.52
V44C,12.8
F66Y,4.07
T86G,3.6
L8D,131
S42N,4.25
L20C,1.7
R69G,3.9
E109W,108
V76S,160
I162T,359
R111A,119
D97G,4.05
V136E,134

# Block 4
# Target: Centromere-binding protein 1, full length, N-terminal tag (CBF1, Saccharomyces cerevisiae, UniProt P17106, residues 1-351)
# Chain of UniProt P17106 (whole entry, looked up): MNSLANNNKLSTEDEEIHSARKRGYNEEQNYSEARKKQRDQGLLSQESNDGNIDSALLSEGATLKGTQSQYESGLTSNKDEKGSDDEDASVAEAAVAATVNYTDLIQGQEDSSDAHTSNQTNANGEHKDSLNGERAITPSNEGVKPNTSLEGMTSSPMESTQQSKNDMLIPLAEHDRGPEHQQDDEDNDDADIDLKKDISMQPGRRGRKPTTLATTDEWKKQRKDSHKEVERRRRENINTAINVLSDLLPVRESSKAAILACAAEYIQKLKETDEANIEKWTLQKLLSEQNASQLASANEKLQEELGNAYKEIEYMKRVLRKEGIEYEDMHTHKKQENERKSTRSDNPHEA
# Technique: protein-binding microarray
# Molecule type: double-stranded DNA, one strand shown
# Matrix: in vitro
# Tested at: 0.8 µM
# Notes: whole 60-bp probe, no competitor
# Reading: higher = stronger binding
# All sequences stand within: … GTCTTGATTCGCTTGACGCTGCTG
Oligonucleotide,fluorescence intensity
TGTACGAAGCTATGTGATCTGCTTATAGTAGTTAGG,538 a.u.
CTAAAGATATAATATCACGAATTTGTTACTAATTTC,538 a.u.
CTATTATTTCTTGTGGTCATTTATTGCTTTTATTTC,582 a.u.
CTATACGGTGCCTCGCACATGAATGTTATCCGGTTC,528 a.u.
CTAAAACAGTCATCAGGTGTAATAGAAGCTAATTTC,723 a.u.
GAAGTATTGAATGTTTTCGTGATGCTTTATTGATAG,542 a.u.
CTAGCCAAGAAAGAGCACGTGTAAAAATGGAATTTC,7570 a.u.
CTACCTAGGAAAGTTAACGTGGTCATACTTTTTTTC,611 a.u.
CCTAACTACTATAAGAAGGTGACATAGCTTCGTACA,516 a.u.
CTAGCAGGAAATAGCCCCGTGCTATTCCATCCTTTC,727 a.u.
GAATTATTTTAAGGACATGTGAGCCATAGTGCATAG,1260 a.u.
GAAGATATCACATACCACGAGATCTGCGCCTCGTAG,747 a.u.
TGTACGAAGCTATCAAGCGTGTCTATAGTAGTTAGG,532 a.u.
CTAAGCGGCTGTCGTCACGCACCATGGGTACCATTC,627 a.u.
GAAATATGTTTGTATGTTGTGATCTAGCACTTCTAG,572 a.u.
CTAGCATTTGTATGTCACGAGTTTTCCTTGATTTTC,2190 a.u.
CCTAACTACTATAGTGTGATGTCATAGCTTCGTACA,579 a.u.
GAATAGAGAAAATCTGATGCAGCAAGATAGCAATAG,544 a.u.
GAACCAAAGGAAGACGTGACCATTCTTAACAGTTAG,1160 a.u.

# Block 5
# Target: JUNB, bZIP domain (human)
# Technique: DHFR protein complementation
# Matrix: yeast
# Notes: single substitutions, most at no-binding floor
# Baseline: wild-type JUN-FOS pair
# Reading: higher = stronger binding
# Parent: JUN, bZIP domain (human); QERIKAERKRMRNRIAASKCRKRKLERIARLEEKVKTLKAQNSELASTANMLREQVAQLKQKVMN; partner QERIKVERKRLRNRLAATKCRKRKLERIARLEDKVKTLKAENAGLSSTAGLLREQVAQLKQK
Variant,binding fitness [natural log]
E44H,-1.11
I28S,-1.39
E44N,-1.34
A57R,-1.2
T37E,-0.833
N42R,-1.24
A46L,-0.971
A49Y,-1.39
E33G,-1.34
A29Y,-1.36
I28W,-1.48
R53D,-1.54
T48F,-1.39
L38V,-1.55
N42K,-1.4
S43E,-0.813
E44M,-1.19
L52R,-1.49

# Block 6
# Target: Sal-like protein 4, full length isoform B (SALL4, Homo sapiens, UniProt Q9UJQ4-2, residues 1-616)
# Technique: universal PBM
# Molecule type: double-stranded DNA, one strand shown
# Matrix: in vitro
# Tested at: not given
# Notes: 8-mer, flanks averaged, mean of replicates
# Reading: higher = stronger binding
# Residues (chain): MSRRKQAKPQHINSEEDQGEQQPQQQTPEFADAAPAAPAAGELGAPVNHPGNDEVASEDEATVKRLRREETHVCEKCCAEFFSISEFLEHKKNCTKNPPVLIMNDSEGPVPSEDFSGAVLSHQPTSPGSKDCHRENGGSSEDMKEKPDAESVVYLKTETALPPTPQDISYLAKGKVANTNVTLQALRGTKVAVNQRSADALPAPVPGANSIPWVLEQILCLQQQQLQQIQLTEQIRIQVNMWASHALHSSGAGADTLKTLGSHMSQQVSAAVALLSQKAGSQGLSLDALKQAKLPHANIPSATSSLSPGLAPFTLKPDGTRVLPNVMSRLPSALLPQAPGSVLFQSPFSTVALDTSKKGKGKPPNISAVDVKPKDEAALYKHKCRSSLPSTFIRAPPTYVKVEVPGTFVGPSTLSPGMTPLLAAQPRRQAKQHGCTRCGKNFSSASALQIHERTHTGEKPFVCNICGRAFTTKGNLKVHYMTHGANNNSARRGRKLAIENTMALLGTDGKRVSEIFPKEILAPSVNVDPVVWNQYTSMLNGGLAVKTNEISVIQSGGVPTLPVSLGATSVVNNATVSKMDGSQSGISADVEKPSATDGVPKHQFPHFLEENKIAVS
Oligonucleotide,E-score
CCTCTCCA,-0.178
TAGCTGCA,-0.143
ATAGCCTC,-0.0405
GTAGAGCA,-0.0604
AGTTGCGG,-0.0689
CACACGAA,-0.0317
CTAGCTGA,-0.0874
GGCCGGGA,-0.174
GCGAAGTA,0.0896
CGTGCTAC,-0.179
CCTGTCCA,-0.201
AGGTTGAC,-0.0554
ACTCCATG,-0.139
GTGTTGAA,0.0279
CATTAATC,0.207
TATGTGAA,0.289
AGTCAAGC,-0.195
AGCTCCCA,-0.272
CTGTCCTA,-0.043
ACTTGTAA,0.237
GAAATTCC,0.0668
AAATCAGC,0.0824
AGATAGAT,0.0922
AAGAGCCC,-0.293

# Block 7
# Target: CCNB1, cyclin fold, Cln2 fusion (human)
# Technique: yeast growth competition, sequencing
# Matrix: yeast
# Notes: strong parent motif
# Baseline: not given
# Reading: higher = stronger binding
# Parent: PKMYT1 docking peptide (human); SFEPRNLLSLFED; partner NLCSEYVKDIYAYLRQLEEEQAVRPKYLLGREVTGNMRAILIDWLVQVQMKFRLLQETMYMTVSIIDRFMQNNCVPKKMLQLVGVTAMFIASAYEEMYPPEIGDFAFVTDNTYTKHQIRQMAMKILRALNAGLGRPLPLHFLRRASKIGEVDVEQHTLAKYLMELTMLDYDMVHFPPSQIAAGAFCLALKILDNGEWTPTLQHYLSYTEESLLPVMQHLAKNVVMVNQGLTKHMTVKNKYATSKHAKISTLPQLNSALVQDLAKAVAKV
Variant,normalised enrichment score
E12N,1.06
F11G,-0.201
E3F,0.718
R5Q,0.875
L8R,0.46
L10P,-0.527
P4D,0.15
S1D,2.34
R5E,0.145
L7R,-0.552
F2H,-0.708
E12M,0.158
E3T,1.85
L10Q,0.589
N6K,0.761
D13W,0.244
L8V,-0.0315

# A few entries again (block 3):
Variant,ABA EC50 [µM]
R123Y,6.96
A35M,103
T173I,7.52
V44C,12.8
F66Y,4.07
T86G,3.6
L8D,131
S42N,4.25
L20C,1.7
R69G,3.9
E109W,108
V76S,160
I162T,359
R111A,119
D97G,4.05
